{"data": "Published values of several laboratories", "note": "Lines come from different studies, so protocols differ. Values joined by “and” are separate records of one study, mostly repeats; a detail may differ. ± gives the spread as reported.", "UniProt P63096, sequence (whole entry, looked up)": "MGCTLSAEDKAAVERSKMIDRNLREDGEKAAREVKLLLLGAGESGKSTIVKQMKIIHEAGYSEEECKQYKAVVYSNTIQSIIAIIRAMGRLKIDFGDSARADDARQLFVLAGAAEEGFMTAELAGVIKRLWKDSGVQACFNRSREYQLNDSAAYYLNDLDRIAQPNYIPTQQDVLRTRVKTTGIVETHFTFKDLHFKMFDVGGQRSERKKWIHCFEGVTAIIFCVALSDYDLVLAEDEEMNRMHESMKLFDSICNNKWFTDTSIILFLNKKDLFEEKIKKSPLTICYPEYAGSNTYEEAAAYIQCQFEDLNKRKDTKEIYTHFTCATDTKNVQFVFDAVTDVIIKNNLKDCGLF", "UniProt P08603, sequence (whole entry, unmodified, looked up)": "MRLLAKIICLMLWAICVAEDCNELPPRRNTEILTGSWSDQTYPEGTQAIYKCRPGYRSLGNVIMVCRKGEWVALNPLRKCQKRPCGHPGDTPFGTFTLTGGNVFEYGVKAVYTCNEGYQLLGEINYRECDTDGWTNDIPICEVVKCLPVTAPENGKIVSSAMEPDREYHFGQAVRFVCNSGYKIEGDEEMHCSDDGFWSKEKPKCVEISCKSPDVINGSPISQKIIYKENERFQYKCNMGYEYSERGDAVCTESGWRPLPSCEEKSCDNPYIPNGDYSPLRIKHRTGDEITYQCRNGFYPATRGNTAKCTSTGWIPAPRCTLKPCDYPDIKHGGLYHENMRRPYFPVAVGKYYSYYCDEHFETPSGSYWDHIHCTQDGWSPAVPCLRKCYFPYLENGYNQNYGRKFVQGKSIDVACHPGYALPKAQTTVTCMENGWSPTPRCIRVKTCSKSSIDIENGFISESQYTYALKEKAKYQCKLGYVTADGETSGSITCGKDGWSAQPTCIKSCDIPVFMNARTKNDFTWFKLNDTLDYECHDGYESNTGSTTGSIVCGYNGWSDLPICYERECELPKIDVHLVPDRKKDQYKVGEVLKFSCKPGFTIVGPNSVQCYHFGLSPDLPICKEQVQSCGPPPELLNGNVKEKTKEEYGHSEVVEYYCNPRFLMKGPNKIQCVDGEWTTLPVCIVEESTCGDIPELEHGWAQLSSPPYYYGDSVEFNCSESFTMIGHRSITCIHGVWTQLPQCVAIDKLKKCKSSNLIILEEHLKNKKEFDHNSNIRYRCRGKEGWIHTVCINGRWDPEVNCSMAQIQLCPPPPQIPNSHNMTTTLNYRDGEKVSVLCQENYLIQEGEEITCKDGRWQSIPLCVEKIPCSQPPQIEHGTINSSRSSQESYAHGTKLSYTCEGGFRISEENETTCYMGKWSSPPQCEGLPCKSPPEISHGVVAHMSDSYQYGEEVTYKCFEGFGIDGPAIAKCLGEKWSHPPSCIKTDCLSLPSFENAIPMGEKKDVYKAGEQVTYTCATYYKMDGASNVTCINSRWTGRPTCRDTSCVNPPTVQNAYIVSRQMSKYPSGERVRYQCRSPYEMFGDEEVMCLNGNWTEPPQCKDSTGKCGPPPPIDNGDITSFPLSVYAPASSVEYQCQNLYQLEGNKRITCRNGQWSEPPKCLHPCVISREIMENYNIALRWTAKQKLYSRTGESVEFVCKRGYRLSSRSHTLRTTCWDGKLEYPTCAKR"}
{"Molecule": "GPC fragment A3V (lymphocytic choriomeningitis virus)", "tested on": "H2-D1/B2m (Mus musculus)", "assay": "flow cytometry", "system": "RMA-S", "quantity": "half-life", "result": "< 1 h"}
{"Molecule": "COc1cc2ncnc(Nc3cccc(Cl)c3)c2cc1OC", "tested on": "Monkeypox virus", "assay": "viral replication", "system": "replication-deficient", "conditions": "10 µM", "quantity": "inhibition", "result": "98% and 99.9% and 99.8%"}
{"Molecule": "cbpA fragment (Streptococcus pneumoniae)", "tested on": "CFH 508-567 M497E (Homo sapiens, UniProt P08603)", "assay": "ITC", "quantity": "Kd", "result": "206 ± 20 nM"}
{"Molecule": "BILF1 A125F (Epstein-Barr virus)", "tested on": "GNAI1 (Homo sapiens, UniProt P63096)", "assay": "IP3 accumulation", "system": "HEK293", "scale": "relative to: wild-type BILF1, higher = more signaling", "quantity": "relative Gi signaling", "result": "76.8%"}
{"Molecule": "COc1ncc(-c2cn([C@@H]3O[C@](F)(CO[P@@](=O)(N[C@@H](C)C(=O)OC(C)C)Oc4ccccc4)[C@@H](OC(=O)C(C)C)[C@H]3OC(=O)C(C)C)cn2)c(OC)n1", "tested on": "Zaire ebolavirus", "assay": "viral replication, reporter virus", "system": "Huh-7", "conditions": "72 h", "quantity": "IC50", "result": "> 100 µM"}
{"Molecule": "GPC fragment V4Y (lymphocytic choriomeningitis virus)", "tested on": "H2-D1/B2m (Mus musculus)", "assay": "flow cytometry", "system": "RMA-S", "quantity": "half-life", "result": "> 1 h"}
{"Molecule": "CC(=O)NC(c1ccc(C)cc1)c1ccc2cccnc2c1O (centres unmarked)", "tested on": "MERS-CoV spike VSV pseudovirus", "assay": "pseudovirus entry", "conditions": "10 µM", "quantity": "inhibition", "result": "51%"}
{"Molecule": "Nc1ncncc1-c1cn([C@@H]2O[C@](F)(CO)[C@@H](O)[C@H]2O)cn1", "tested on": "Zaire ebolavirus", "assay": "viral replication, reporter virus", "system": "Huh-7", "conditions": "72 h", "quantity": "IC50", "result": "> 100 µM"}
{"note": "For quick reference, copied from above:"}
{"Molecule": "GPC fragment V4Y (lymphocytic choriomeningitis virus)", "tested on": "H2-D1/B2m (Mus musculus)", "assay": "flow cytometry", "system": "RMA-S", "quantity": "half-life", "result": "> 1 h"}
